Experimental data gathered from unrelated publications.
± gives the spread as reported.

COC(=O)C1=CO[C@@H](O)[C@@H]2C(Cn3cc(CON4C(=O)c5ccccc5C4=O)nn3)=CC[C@H]12 — viability (SK-N-SH; neuroprotection, MTT; 0.6 µM, 24 h, added: 250 µM H2O2): 77.2 ± 1.8%
CCC(C)C(=O)OC1C2C3(C)CCC(OC4CC(OC)C(OC5OC(C)C(O)C(OC)C5O)C(C)O4)CC3CCC23OC32CCC(C(C)=O)C2(C)C1OC(C)=O (stereo not shown) — fold reversal of IC50 (MDA435/LCC6-MDR1; cell growth, MDR reversal, SRB; 10 µM, added: doxorubicin; reference: doxorubicin alone over combination): 6
CC(ON1C(C)(C)CCCC1(C)C)c1ccc(OC(=O)[C@@H](NC(=O)[C@@H]2CCCN2C(=O)[C@H](C)NC(=O)[C@H](C)NC(=O)CCC(=O)O)C(C)C)cc1 (stereo partly shown) — LC50 (U87; cell viability, PrestoBlue; 48 h, added: HNE 0.68 µM): ~150 µM
CC/C=C\C/C=C\C/C=C\C/C=C\C/C=C\C/C=C\CCC(=O)Nc1ccn(C2OC(CO)C(O)C2(F)F)c(=O)n1 (stereo not shown) — CC50 (SK-OV-3; NCI60 screen): > 100 µM
COc1cc(C)c(OC)c2c1OCO2 — GI50 (SK-OV-3; cell growth or viability, MTT; 72 h): > 250 µM
CCCCCCCCCCCCCC(=O)NCC(=O)N[C@@H](CCCNC(=N)N)C(=O)N[C@@H](Cc1c[nH]c2ccccc12)C(=O)N[C@@H](CCCCN)C(=O)N[C@H](C(=O)N[C@@H](Cc1ccccc1)C(=O)N[C@@H](CCCCN)C(=O)N[C@@H](CCCCN)C(=O)N[C@H](C(=O)N[C@@H](CCC(=O)O)C(=O)N[C@@H](CCCCN)C(=O)N[C@H](C(=O)NCC(=O)N[C@@H](CCC(N)=O)C(=O)N[C@@H](CC(N)=O)C(=O)N[C@H](C(=O)N[C@@H](CCCNC(=N)N)C(=O)N[C@@H](CC(=O)O)C(=O)NCC(=O)N[C@H](C(=O)N[C@H](C(=O)N[C@@H](CCCCN)C(=O)N[C@@H](C)C(=O)NCC(=O)N1CCC[C@H]1C(=O)N[C@@H](C)C(=O)N[C@H](C(=O)N[C@@H](C)C(=O)N[C@H](C(=O)N[C@H](C(=O)NCC(=O)N[C@@H](CCC(N)=O)C(=O)N[C@@H](C)C(=O)N[C@@H](C)C(=O)N[C@H](C(=O)N[C@H](C(N)=O)[C@@H](C)CC)[C@@H](C)O)C(C)C)C(C)C)C(C)C)C(C)C)[C@@H](C)CC)[C@@H](C)CC)C(C)C)[C@@H](C)CC)[C@@H](C)CC — Bax/Bcl-2 ratio (Jurkat; western blot; concentration not given, 16 h): increased
F[P-](F)(F)(F)(F)F.OCP(CO)CO.OCP(CO)CO.OCP(CO)CO.OCP(CO)CO.[Cu+] — selectivity index ratio (non-tumour over colon cancer cells; reference: cisplatin): 35 fold
[Cl][Ag].[Se]=c1n(C2CCCCC2)ccn1C1CCCCC1 — resistance factor (LoVo-OXP colon cancer cells; MTT; reference: LoVo-OXP over LoVo IC50): 0.9
COC(=O)C1=CO[C@@H](OC(C)=O)[C@@H]2C(Cn3cc(CN4C(=O)c5ccccc5C4=O)nn3)=CC[C@H]12 — viability (SK-N-SH; neuroprotection, MTT; 0.3 µM, 24 h, added: 250 µM H2O2): 56.8 ± 1.3%
CC1CN1c1cc(O)c2nc(N)sc2c1 (stereo not shown) — H3K36 methylation (HM-2 mouse cells; western blot; concentration not given, 8 days): no effect
Cc1ccnc(Nc2c3c(nc4ccc(Cl)cc24)CCCC3)c1 — viability (SH-SY5Y; MTT; 50 µM, 1 h pretreatment, 10% FBS, added: H2O2): 48 ± 4.33%
O=c1c(NCCc2ccccc2)c(NC2CCN(Cc3ccccc3)CC2)c1=O — cell survival (SH-SY5Y; neuroprotection, MTT; 12.5 µM, 24 h pretreatment, added: H2O2 650 µM for 4 h): 58.1%
CN1CCN(C(c2ccccn2)c2c(-c3ccccc3)n(O)c3ccccc23)CC1 (stereo not shown) — survival and regrowth (wild-type and BAX/BAK double-knockout BMK; crystal violet; concentration not given, 24 h, regrowth 3 days): no effect
CCn1cc(-c2ccn3c(-c4ccc(-c5nnc(C)o5)cc4)cnc3c2)cn1 — activity (human SAOS-2; SIK substrate phosphorylation, item: HDAC4/5, CRTC2; concentration not given): inactive
COC(=O)C1=CO[C@@H](O)[C@@H]2C(Cn3cc(-c4ccc(F)cc4)nn3)=CC[C@H]12 — viability (SK-N-SH; neuroprotection, MTT; 0.075 µM, 24 h, added: 250 µM H2O2): 50.9 ± 1.2%
CC[C@H](C)[C@@H]1NC(=O)[C@H](Cc2cn(CCc3c(C)[nH]c4cc(Cl)cc(Cl)c34)nn2)NC(=O)[C@@H](CC(N)=O)NC(=O)[C@H](CCCNC(=N)N)NC(=O)[C@H](Cc2ccccc2)NC(=O)[C@@H](CC(C)C)NC(=O)[C@H](C)NC(=O)c2cc3cc(c2)C(=O)NC[C@@H](C(=O)N[C@@H](CCCCN)C(N)=O)NC(=O)[C@H](CCCNC(=N)N)NC(=O)[C@H](CCCNC(=N)N)NC(=O)[C@H](CCCNC(=N)N)NC(=O)[C@H](CCCNC(=N)N)NC(=O)[C@H](Cc2ccc4ccccc4c2)NC(=O)[C@H](Cc2ccccc2)NC(=O)[C@H](CCCCNC3=O)NC(=O)[C@H](CC(=O)O)NC1=O — dead cells (H1299; annexin V/propidium iodide flow cytometry; 10 µM, 12 h; reference: cells): ~5%
COC(=O)C[C@](O)(CCCC(C)(C)OC(C)=O)C(=O)O[C@@H]1C(OC)=C[C@]23CCCN2CCc2cc4c(cc2[C@H]13)OCO4 — time to MCL-1 degradation (pancreatic cancer cells; western blot; 1 µM): 4 h
COC(=O)C1=CO[C@@H](OC(C)=O)[C@@H]2C(Cn3cc(COCc4ccc(OC)cc4)nn3)=CC[C@H]12 — viability (SK-N-SH; neuroprotection, MTT; 0.6 µM, 24 h, added: 250 µM H2O2): 69.5 ± 0.2%
CC(C)CC(O)(CC(C)C)c1cn(C(=O)N2CCCC2)nn1 — SILAC ratio (mouse T-cells; N-terminal labeled proteins, N-terminal enrichment proteomics, item: UQCRH; 1 nM, 6 h; reference: DMSO): 2.27 ± 0.06
Cc1cc(C)c(-n2ccn(-c3c(C)cc(C)cc3C)c2=[Se])c(C)c1.[Cl][Ag] — resistance factor (LoVo MDR; MTT; reference: LoVo MDR over LoVo): 0.9
COC(=O)C1=CO[C@@H](OC(C)=O)[C@@H]2C(Cn3cc(CCCCN4C(=O)c5ccccc5C4=O)nn3)=CC[C@H]12 — viability (SK-N-SH; neuroprotection, MTT; 0.6 µM, 24 h, added: 250 µM H2O2): 65.9 ± 1.1%
CCCCCCCCC[P+](c1ccccc1)(c1ccccc1)c1ccccc1 — GI50 (SK-OV-3; cell growth or viability, MTT; 72 h): 0.647 µM
CCCCCCCCCCOCc1cn(CC2=CC[C@@H]3C(C(=O)OC)=CO[C@@H](OC(C)=O)[C@H]23)nn1 — viability (SK-N-SH; neuroprotection, MTT; 0.075 µM, 24 h, added: 250 µM H2O2): 52.1 ± 0.5%
Cc1cccc(O)c1C(=O)OCC1(O)C(Nc2ccc3c(c2)Cc2ccccc2-3)C(N)C(NC(=O)N(C)C)(C(C)O)C1(C)O (stereo not shown) — GI50 (SNB-19; cell growth or viability, SRB): 1.4 µM
COC(=O)C1=CO[C@@H](O)[C@@H]2C(Cn3cc(CN4C(=O)c5ccccc5C4=O)nn3)=CC[C@H]12 — viability (SK-N-SH; neuroprotection, MTT; 0.6 µM, 24 h, added: 250 µM H2O2): 72.2 ± 0.9%
CN1C(=O)C2(Cc3ccc(CC45SSC(CO)(C(=O)N4C)N(C)C5=O)cc3)SSC1(CO)C(=O)N2C (racemic) — number of down-regulated transcripts (MCF7 cells; microarray; 600 nM, fold change at least 2.0, added: DFO 300 µM; reference: DFO alone): 113
COc1ccc(Nc2c3c(nc4cc(C)ccc24)CCCC3)nc1 — viability (SH-SY5Y; MTT; 50 µM, 1 h pretreatment, 10% FBS, added: H2O2): 44 ± 3.2%
COC(=O)C1=CO[C@@H](OC(C)=O)[C@@H]2C(Cn3cc(CCCO)nn3)=CC[C@H]12 — viability (SK-N-SH; neuroprotection, MTT; 0.075 µM, 24 h, added: 250 µM H2O2): 78.8 ± 0.4%
